Results of several laboratories.
Parts stem from different laboratories: compare values within a part only. Substitutions count along the parent as printed.

Study 1 — method: RNA Bind-n-Seq; form: RNA; medium: in vitro; tested at: 20 nM; setting: 6-mer, flanks averaged, single round; added: 150 mM KCl; baseline: input library; reading: higher = stronger binding
Target: TAR DNA-binding protein 43, full length, His tag (TARDBP, Homo sapiens, UniProt Q13148, residues 1-414)
Oligonucleotide	6-mer enrichment (R)
UUGCUU	0.645
UUCUUC	0.545
GACGUU	0.75
GAACGC	0.873
GCAAAC	0.703
CUUUAG	0.615
CUUCGG	0.815
UAACCC	0.606

Study 2 — target: UBE2D4 UBC core domain (UniProt Q9Y2X8); method: yeast two-hybrid; medium: yeast; setting: mostly zero background; baseline: not given; reading: higher = stronger interaction
B1: DTX1 RING domain (UniProt Q86Y01); chain QKVKNPPDEDCTICMERLVTASGYEGVLRHKGVRPELVGRLGRCGHMYHLLCLVAMYSNGNKDGSLQCPTCKAIYGEKTGTQ
B2: RNF24 RING domain (UniProt Q9Y225); chain KVKELNLHELCAVCLEDFKPRDELGICPCKHAFHRKCLIKWLEVRKVCPLCNMPVLQLAQLH
Construct (chain): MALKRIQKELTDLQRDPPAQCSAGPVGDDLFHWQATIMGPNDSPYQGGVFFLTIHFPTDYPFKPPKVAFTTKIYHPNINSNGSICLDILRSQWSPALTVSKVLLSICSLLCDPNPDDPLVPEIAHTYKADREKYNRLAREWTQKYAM
Molecule	lacZ reporter activity
B1 (DTX1 RING domain)	11800
B2 (RNF24 RING domain)	0
QLRRLQEERTCKVCLDRAVSIVFVPCGHLVCAECAPGLQLCPICRAPVRSRVRTF (BIRC7 RING domain (UniProt Q96CA5))	0

Study 3 — read-out: peptide-MHC binding; form: peptide; tested at: concentration not given
Target: HLA class I histocompatibility antigen, A alpha chain, allele A*25:01 (Homo sapiens, UniProt P04439)
Molecule	binding
LLAMTFWPA	inactive
KVGFIMLFH	inactive
MGMEQTMSV	inactive
KLHRYIDSM	inactive

Study 4 — target: CCNB2, cyclin fold, Cln2 fusion (human); method: yeast growth competition, sequencing; medium: yeast; setting: weak parent motif; baseline: not given; reading: higher = stronger binding; starting sequence: viral docking peptide; PGASRRLFGSSAD
Variant	normalised enrichment score
PGASRRLFGSSAA [D13A]	0.794
PGASKRLFGSSAD [R5K]	0.365
PGAARRLFGSSAD [S4A]	0.462
PAASRRLFGSSAD [G2A]	0.255
PGASRRLAGSSAD [F8A]	0.213
PGASARAFGSSAD [R5A L7A]	0.297
PGASARLFGSSAD [R5A]	0.312

Excerpt of the above (study 3):
Molecule	binding
KVGFIMLFH	inactive
MGMEQTMSV	inactive
